Results of several laboratories.
Each numbered part is a random draw from the data of one study; scales do not carry over between parts. Positions count from the first letter of the parent shown.

Block 1
Target: UBE2V1 UBC core domain (UniProt Q13404)
Technique: yeast two-hybrid
Sample: yeast
Notes: mostly zero background
Reference: not given
Direction: higher = stronger interaction
B1: RFPL3 RING domain (UniProt O75679); chain MAALFQEASSCPVCSDYLEKPMSLECGCTVCLKCINSLQKEPHGEDLLCCCCSMVSQRNKIRP
B2: TRIM34 RING domain (UniProt Q9BYJ4); chain ILLNVQEEVTCPICLELLTEPLSLDCGHSLCRACITVSNKEAVTSMGGKSSCPVCGISYSFEHLQA
B3: TRIM28 RING domain (UniProt Q13263); chain GAEALELLEHCGVCRERLRPEREPRLLPCLHSACSACLGPAAPAAANSSGDGGAAGDGTVVDCPVCKQQCFSKDIVE
B4: TRIM32 RING domain (UniProt Q13049); chain NLDALREVLECPICMESFTEEQLRPKLLHCGHTICRQCLEKLLASSINGVRCPFCSKITRITSLTQ
B5: UBE4B RING domain (UniProt O95155); chain KNARAEIDYSDAPDEFRDPLMDTLMTDPVRLPSGTIMDRSIILRHLLNSPTDPFNRQTLTESMLEPVPELKEQIQAWMREKQNSDH
B6: CBLL1 RING domain (UniProt Q75N03); chain GEKDDTPVHFCDKCGLPIKIYGRMIPCKHVFCYDCAILHEKKGDKMCPGCSDPVQRIEQCT
B7: ARIH1 RING domain (UniProt Q9Y4X5); chain NTRSSAQDMPCQICYLNYPNSYFTGLECGHKFCMQCWSEYLTTKIMEEGMGQTISCPAHGCDILVDDNTVM
B8: TRIM2 RING domain (UniProt Q9C040); chain VRQIDKQFLICSICLERYKNPKVLPCLHTFCERCLQNYIPAHSLTLSCPVCRQTSILPEKGV
B9: TRIM47 RING domain (UniProt Q96LD4); chain MDGSGPFSCPICLEPLREPVTLPCGHNFCLACLGALWPHRGASGAGGPGGAARCPLCQEPFPDGLQLR
B10: RNF32 RING domain (UniProt Q9H0A6); chain VQALRRETHECSICLAPLSAAGGQRVGAGRRSREMALLSCSHVFHHACLLALEEFSVGDRPPFHACPLCRSCYQKKILEC
B11: RNF130 RING domain (UniProt Q86XS8); chain DKETDPDFDHCAVCIESYKQNDVVRILPCKHVFHKSCVDPWLSEHCTCPMCKLNILKALGIV
B12: SHPRH RING domain (UniProt Q149N8); chain KTSGGVNPEPCPICARQLGKQWAVLTCGHCFCNECISIIIEQYSVGSHRSSIKCAICRQTTSHKEISY
Construct (chain): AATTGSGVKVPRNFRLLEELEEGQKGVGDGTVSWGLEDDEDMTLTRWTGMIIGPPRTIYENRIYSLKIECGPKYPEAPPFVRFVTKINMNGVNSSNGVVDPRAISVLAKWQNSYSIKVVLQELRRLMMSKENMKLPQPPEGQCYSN
Sequence	lacZ reporter activity
B1 (RFPL3 RING domain)	0
VPADASPDSKCPICLDRFDNVSYLDRCLHKFCFRCVQEWSKNKAECPLCKQPFDSIFHSV (TOPORS RING domain (UniProt Q9NS56))	0
B2 (TRIM34 RING domain)	0
AAQLLEEKLTCAICLGLYQDPVTLPCGHNFCGACIRDWWDRCGKACPECREPFPDGAELR (TRIM65 RING domain (UniProt Q6PJ69))	0
B3 (TRIM28 RING domain)	0
EDVLSKDAGECAICLEELQQGDTIARLPCLCIYHKGCIDEWFEVNRSCPEHPSD (ZNRF2 RING domain (UniProt Q8NHG8))	0
B4 (TRIM32 RING domain)	0
B5 (UBE4B RING domain)	0
B6 (CBLL1 RING domain)	0
B7 (ARIH1 RING domain)	0
PLRRLQEEKLCKICMDRHIAVVFIPCGHLVTCKQCAEAVDRCPMCSAVIDFKQRVF (BIRC8 RING domain (UniProt Q96P09))	0
B8 (TRIM2 RING domain)	0
B9 (TRIM47 RING domain)	0
B10 (RNF32 RING domain)	0
B11 (RNF130 RING domain)	0
B12 (SHPRH RING domain)	0

Block 2
Target: CCND1, cyclin fold, Cln2 fusion (human)
Technique: yeast growth competition, sequencing
Sample: yeast
Notes: weak parent motif
Reference: not given
Direction: higher = stronger binding
Parent: CDAN1 docking peptide (human); RGARSQLFPPTEA; partner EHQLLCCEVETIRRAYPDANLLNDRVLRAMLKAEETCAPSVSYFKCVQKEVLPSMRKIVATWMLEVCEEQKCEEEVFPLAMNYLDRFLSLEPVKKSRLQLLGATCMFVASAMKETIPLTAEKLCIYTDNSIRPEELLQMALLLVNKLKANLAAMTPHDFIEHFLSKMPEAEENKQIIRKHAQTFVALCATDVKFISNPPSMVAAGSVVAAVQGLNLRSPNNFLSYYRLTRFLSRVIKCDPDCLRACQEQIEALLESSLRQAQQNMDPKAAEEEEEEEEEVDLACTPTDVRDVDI
Substitution	normalised enrichment score
R4A	-0.0553
L7A	-0.0934
T11A	-0.00481
P9A	0.0883
P10A	0.0952
E12A	0.0411

Block 3
Target: Histone acetyltransferase KAT6A, winged helix 2, GST fusion (KAT6A, Homo sapiens, UniProt Q92794, residues 85-181)
Technique: protein binding microarray
Molecule type: double-stranded DNA, one strand shown
Sample: in vitro
Tested at: not given
Notes: 8-mer, flanks averaged, mean of 2 arrays, mostly near background
Reference: not given
Direction: higher = stronger binding
Residues (chain): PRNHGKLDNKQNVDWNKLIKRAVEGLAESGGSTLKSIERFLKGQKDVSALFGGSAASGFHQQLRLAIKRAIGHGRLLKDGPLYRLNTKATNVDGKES
Oligonucleotide	E-score
AGGGGCAG	0.147
CTAAGTAG	-0.0418
CTTAAGTA	-0.17
CATGCATA	-0.149
GGTCCAGA	-0.0767
GCACTTAA	-0.00306
CGATGGGA	-0.101
GGAGTGCA	0.107
AGTATGGA	0.117
CCAGCACG	-0.0217
ATCTTACA	-0.0647
GTCACTAA	-0.111
CTAGACAG	-0.0131
ATAGTCGA	0.0646
AGCATAGG	-0.11
TAGATAAA	0.0975
GACCTAGA	-0.0508
GCAAGCAC	-0.0982
CCGACAAA	0.186
CGAGACGC	-0.00374
ACGCACCC	-0.0356

Block 4
Target: RNA binding protein fox-1 homolog 2, RRM domain, GST-SBP tag (RBFOX2, Homo sapiens, UniProt O43251-10, residues 100-194)
Technique: RNA Bind-n-Seq
Molecule type: RNA
Sample: in vitro
Tested at: 365 nM
Notes: natural RNA segment, single round, ends assumed
Reference: no-protein control
Direction: higher = stronger binding
Constant ends, left off below: GGGAGUUCUACAGUCCGACGAUC … UGGAAUUCUCGGGUGCCAA
Residues (chain): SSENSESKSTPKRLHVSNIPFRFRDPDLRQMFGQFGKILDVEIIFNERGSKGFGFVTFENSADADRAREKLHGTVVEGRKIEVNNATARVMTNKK
Oligonucleotide	RBNS enrichment (R)
CUCCUACCAGGUCUGGGAUUGAGAUGUUAGAGUCUUCAGUUUUAUAGCCGGCUCCUGAAAGCAGGCGACAUCAGAGUGGUAACAGUCAGUAGGCUGCAGUAGGUGUCCUA	0.392
UUAUUUUGUGGUUCUAUUUUACUUUGUACUUGUGUUUGCUUAAACAAAGUGACUGUUUGGCUUAUAAACACAUUGAAUGCGCUUUAUUGCCCAUGGGAUAUGUGGUGUAU	0.725
GGGCAGAAAUCUAUAGAUUCUUUUGAAAUGUAAAUAAAAAGAUUGUAAACGCCCUAUAGUUUCUAUACAGCAUGCUGCAUUGUCAAUUUGGUAGCUUUUUCUCUUUCUUU	38.5
GGGGCAAUUCUCCCUAGUGCCUCUGCACCAGACACCACAAAACCUCAGCCAUGCUGCCGCCGAAGGGUGGCCCCCUCACCGAAUCUCCUUAGGAAGGGUUUUAUACAGAC	0.45
UGAGUAAACUCUAAAUUGUUAAAUAUUUAUGCUGCUAUAAAUUAGAAUUACCUAUUCUACGUGCCUUUUCUUAGGAAAAGAGAGUACUGGAUCAUGGUUUUCUUCCUUAC	0.809
GGAGCAGGAGGAAGUCCACUUCUGUACCGGCAGACAGAGCAUGUGAACACAAAACACAUUUCUAUGGCAUAGUCAACUGAACUUCAUUUUUACAUUUAAUCUAACAUGUU	0.493
CUAAUAUCUUUAAAUAUAUAUAUAUAUUUUAAAGACCAAUUUAUGGGAGAAUUGCACACAGAUGUGAAAUGAAUGUAAUCUAAUAGAAGCCUAAUCAGCCCACCAUGUUC	1.11
UGGCAAAGCUGCAGCUUUUUCCUGCAUUUGGUCCCAUAAUCUUAAUAGAAACAAUUUCCUAUUACACAGAAAUGACUAAUUCCAGAGUCUCAUGAUAUAAUUUGCUAUAA	0.311
GUGCAUAAAGUGAGCUUAAAACUUGCCACUGUUUAGUAAGUUAGCCCCCAUAGAAUGUGACCCUGUCUGCAGAGUCUCAUUUACCCCUCUUUUUCUCAUUGUCAUUUGUU	0.325
AUCGUAGAUGUUGUAGACUGAGAUUUGGGACUAUGUUGGGACCGUACAGGUGAAUGUGCCACCUCCACAAAUGGCUUCUCCGAGUGAGUCACGUCACCUGGUGCGUGGAG	0.615
CAUCAUUUUACCAAACAUACCGAGAACGAAAACUUCAAGGAUGAUGUUAGAAAAAAAUGUGAUUUAACUAGAACUUGCUGUCUGAUGUUAGCAAAUCAUGGAAUGUUCUG	0.338
CUUCCUGGUAGUUGUAAUGACCACUCCCAUAAGGGCUAUAACUGUUCUUCACAGGUGGCCCUGCUCAAAAUACAUCCUCUCUUUUCCCGUUCUAUCCCUACAUUCACAUC	0.295

Block 5
Target: Interferon regulatory factor 3, full length, phosphomimetic (IRF3, Homo sapiens, UniProt Q14653, residues 1-427, S386D/S396D/S398D/S402D/T404D/S405D)
Technique: protein-binding microarray
Molecule type: double-stranded DNA, one strand shown
Sample: in vitro
Tested at: 2540 nM top
Notes: 60-bp whole probe
With: salmon DNA 0.4 mg/ml
Reference: random background probes
Direction: higher = stronger binding
Constant ends, left off below: GCCTAGCAC … GTCTTGATTCGCTTGACGCTGCTG
Construct (chain): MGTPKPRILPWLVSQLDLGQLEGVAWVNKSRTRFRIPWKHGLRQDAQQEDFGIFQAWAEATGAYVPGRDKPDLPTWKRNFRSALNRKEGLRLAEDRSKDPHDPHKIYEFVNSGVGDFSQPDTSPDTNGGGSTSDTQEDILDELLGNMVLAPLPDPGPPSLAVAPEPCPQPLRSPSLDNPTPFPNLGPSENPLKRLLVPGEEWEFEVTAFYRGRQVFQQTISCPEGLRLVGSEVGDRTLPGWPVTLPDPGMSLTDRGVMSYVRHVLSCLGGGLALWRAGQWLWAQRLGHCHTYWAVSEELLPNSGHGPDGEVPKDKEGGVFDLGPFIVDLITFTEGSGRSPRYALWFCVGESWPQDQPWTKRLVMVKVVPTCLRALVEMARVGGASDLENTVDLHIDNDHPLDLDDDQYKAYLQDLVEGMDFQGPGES
Oligonucleotide	fitted relative affinity
TGGAGAGTAGCTTTCTGAGGGTGCTAG	-0.684 z-score
AACGAACTGGGGACTGGAGACGTGCTA	-0.588 z-score
TCATTTTTCTAACCCATACTGTGCTAG	2.2 z-score
GACGGTCTCGGACTGGAGACGTGCTAG	0.115 z-score
AACGATCTCAGACTGGAGACGTGCTAG	0.223 z-score
TCATTTTTCTTTTATTAACTGTGCTAG	3.87 z-score
TTAGGTTTCGGTCGCGGTTAGTGCTAG	4.53 z-score
GACGATATCAGACTGGAGTCGTGCTAG	0.417 z-score
TTAGGTATCCTGTTCCTTTAGTGCTAG	2.2 z-score
TCATGTTTCTGTGTCACACTGTGCTAG	2.19 z-score
GACGATTTCAGTATCGAGCCGTGCTAG	2.01 z-score
GACGATATCAGACCGGAGACGTGCTAG	0.191 z-score
GACGGTATCGGGAATGGGGACGTGCTA	0.997 z-score
TTAGGTTTCGACACTGCGTTAGTGCTA	2.53 z-score
GACGGTCTCCTTCTCCAGACGTGCTAG	4.3 z-score
GTTGCTCTCCGGGGTCTGTGAGTGCTA	-0.184 z-score
GACGGACTGGACTTTCGCGACGTGCTA	-0.439 z-score
TCATTTATCCCTGACAGACTGTGCTAG	1.7 z-score
TCACCTATGTCATTTACACTGTGCTAG	0.713 z-score
TTCGGACTGGGACTGGGTTAGTGCTAG	-0.76 z-score
GACGAACTGGTGTATCGAGACGTGCTA	-0.0313 z-score
TCACTTTCCACTTGTCTTTTCGTGCTA	4.6 z-score
TTAGGTATGGGGTATCGGTTAGTGCTA	-0.00592 z-score
